# Results pooled from the literature.
# Numbered parts are unrelated; each lists some results of a single study.
# Sequence of UniProt Q52WX2 (whole entry, looked up): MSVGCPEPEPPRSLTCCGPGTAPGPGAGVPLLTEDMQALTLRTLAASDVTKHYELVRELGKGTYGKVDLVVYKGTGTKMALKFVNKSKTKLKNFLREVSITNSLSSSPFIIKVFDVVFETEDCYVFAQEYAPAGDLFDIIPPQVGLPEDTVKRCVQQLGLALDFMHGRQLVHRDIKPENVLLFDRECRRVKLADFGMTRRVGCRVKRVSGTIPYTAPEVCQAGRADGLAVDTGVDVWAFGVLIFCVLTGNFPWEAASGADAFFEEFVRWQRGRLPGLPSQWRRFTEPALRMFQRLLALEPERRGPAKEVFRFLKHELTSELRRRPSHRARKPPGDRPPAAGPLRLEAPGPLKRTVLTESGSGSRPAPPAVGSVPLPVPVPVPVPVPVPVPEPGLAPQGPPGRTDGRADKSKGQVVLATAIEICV
# Sequence of UniProt P50750 (whole entry, looked up): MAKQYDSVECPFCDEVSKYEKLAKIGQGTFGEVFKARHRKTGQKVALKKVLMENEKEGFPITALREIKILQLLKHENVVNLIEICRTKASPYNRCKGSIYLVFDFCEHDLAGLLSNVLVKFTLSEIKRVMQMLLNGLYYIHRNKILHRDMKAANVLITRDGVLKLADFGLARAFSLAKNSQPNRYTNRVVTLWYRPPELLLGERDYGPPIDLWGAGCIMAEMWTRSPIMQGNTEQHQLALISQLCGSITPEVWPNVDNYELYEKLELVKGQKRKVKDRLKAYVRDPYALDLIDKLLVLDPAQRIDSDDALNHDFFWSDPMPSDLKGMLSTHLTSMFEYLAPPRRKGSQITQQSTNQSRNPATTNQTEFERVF
# Sequence of UniProt Q02156 (whole entry, looked up): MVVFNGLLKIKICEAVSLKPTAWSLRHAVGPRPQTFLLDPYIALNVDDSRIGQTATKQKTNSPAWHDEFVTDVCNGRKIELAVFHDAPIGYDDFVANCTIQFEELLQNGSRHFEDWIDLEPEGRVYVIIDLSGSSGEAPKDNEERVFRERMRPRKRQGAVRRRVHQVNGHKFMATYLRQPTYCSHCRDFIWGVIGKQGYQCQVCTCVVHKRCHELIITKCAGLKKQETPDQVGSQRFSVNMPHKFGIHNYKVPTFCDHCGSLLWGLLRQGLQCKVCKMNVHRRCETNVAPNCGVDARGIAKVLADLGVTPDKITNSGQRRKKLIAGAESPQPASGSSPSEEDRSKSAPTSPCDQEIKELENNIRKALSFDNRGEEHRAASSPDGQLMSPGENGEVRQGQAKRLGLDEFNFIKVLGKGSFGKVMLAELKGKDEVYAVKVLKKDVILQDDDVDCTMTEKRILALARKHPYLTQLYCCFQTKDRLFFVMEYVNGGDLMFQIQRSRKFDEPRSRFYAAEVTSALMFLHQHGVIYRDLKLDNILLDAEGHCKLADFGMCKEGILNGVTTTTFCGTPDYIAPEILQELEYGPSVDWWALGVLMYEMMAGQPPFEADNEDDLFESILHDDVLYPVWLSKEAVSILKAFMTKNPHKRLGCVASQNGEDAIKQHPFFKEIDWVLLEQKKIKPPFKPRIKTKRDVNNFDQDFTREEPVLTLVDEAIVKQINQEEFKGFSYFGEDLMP
# Sequence of UniProt P07947 (whole entry, looked up): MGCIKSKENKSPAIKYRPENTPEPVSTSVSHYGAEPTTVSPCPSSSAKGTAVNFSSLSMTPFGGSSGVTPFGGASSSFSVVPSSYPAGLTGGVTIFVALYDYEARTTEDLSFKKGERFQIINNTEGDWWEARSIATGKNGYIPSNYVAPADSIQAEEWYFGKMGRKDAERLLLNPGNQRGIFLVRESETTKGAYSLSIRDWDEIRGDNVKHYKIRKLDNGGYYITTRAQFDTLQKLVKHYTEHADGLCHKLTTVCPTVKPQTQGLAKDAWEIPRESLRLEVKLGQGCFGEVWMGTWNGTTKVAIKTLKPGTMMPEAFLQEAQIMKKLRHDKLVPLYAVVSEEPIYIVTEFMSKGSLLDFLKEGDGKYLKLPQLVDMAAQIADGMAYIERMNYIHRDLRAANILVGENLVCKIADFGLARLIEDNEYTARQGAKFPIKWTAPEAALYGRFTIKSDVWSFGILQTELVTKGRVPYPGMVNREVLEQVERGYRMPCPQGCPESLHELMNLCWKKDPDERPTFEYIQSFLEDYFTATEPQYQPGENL
# Sequence of UniProt Q6DT37 (whole entry, looked up): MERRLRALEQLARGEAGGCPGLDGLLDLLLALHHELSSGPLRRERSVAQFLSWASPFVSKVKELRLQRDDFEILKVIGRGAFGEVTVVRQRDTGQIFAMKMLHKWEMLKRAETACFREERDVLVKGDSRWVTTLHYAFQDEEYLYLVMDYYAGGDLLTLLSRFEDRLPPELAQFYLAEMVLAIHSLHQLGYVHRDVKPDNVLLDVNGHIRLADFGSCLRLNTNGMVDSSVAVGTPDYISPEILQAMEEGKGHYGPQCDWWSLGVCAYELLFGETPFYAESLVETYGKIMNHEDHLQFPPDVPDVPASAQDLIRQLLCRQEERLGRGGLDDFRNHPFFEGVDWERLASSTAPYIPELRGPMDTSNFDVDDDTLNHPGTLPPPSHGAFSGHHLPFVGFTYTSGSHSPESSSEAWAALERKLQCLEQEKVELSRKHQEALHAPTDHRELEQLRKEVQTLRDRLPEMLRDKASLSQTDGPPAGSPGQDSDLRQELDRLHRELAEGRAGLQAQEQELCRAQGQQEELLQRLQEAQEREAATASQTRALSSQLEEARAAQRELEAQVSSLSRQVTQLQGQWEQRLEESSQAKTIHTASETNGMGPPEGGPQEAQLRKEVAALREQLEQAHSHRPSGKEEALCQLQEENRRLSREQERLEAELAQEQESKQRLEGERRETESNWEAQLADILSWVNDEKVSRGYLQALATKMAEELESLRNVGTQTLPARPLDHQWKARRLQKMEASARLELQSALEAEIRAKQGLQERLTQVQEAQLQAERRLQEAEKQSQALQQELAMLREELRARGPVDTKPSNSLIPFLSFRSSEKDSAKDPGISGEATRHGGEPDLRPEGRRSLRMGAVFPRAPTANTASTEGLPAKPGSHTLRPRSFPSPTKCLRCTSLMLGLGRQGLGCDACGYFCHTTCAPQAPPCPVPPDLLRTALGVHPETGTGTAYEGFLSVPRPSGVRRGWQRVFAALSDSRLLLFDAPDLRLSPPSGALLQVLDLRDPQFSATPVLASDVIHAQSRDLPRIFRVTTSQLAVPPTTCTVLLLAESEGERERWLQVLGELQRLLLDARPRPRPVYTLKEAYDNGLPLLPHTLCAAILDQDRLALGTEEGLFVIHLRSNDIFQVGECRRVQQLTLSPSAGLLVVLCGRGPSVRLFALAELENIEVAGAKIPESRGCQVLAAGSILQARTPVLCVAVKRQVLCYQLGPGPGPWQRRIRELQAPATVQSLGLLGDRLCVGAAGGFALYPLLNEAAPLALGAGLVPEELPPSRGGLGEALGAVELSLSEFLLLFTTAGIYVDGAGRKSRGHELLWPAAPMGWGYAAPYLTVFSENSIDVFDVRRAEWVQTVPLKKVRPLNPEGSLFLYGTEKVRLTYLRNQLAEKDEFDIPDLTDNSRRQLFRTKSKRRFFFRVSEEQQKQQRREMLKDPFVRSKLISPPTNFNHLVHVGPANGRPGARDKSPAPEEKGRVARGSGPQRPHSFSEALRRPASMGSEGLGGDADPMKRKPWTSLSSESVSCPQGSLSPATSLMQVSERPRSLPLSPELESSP

# Set 1
# SMILES: Cc1cc(C)c(-n2ccn3nc(-c4cccnc4)cc23)cc1NC(=O)c1cc(C#N)cc(S(F)(F)(F)(F)F)c1
# Concentration: 0.1 µM
target,assay,remaining binding
"YES1 (Homo sapiens, UniProt P07947)","cell-free assay, competition with immobilised ligand",70.7%
"PRKCE (Homo sapiens, UniProt Q02156)","cell-free assay, competition with immobilised ligand",100%
"SBK1 (Homo sapiens, UniProt Q52WX2)","cell-free assay, competition with immobilised ligand",82.2%
"CDC42BPG (Homo sapiens, UniProt Q6DT37)",competition binding,88.8%
"CDK9 (Homo sapiens, UniProt P50750)","cell-free assay, competition with immobilised ligand",85.5%
"WNK1 (Homo sapiens, UniProt Q9H4A3)","cell-free assay, competition with immobilised ligand",97.3%

# Set 2
# Cell line: HaCaT
# Concentration: 100 µM
# Time: 36 h
Compound,viability
CC(C)COc1ccc(CNC(=O)N(Cc2ccc(F)cc2)C2CCN(C)CC2)cc1,5.4%
Cc1ccc(-c2cc(C(F)(F)F)nn2-c2ccc(S(N)(=O)=O)cc2)cc1,4.28%
COc1c(C)c2c(c(O)c1C/C=C(\C)CCC(=O)OCCN1CCOCC1)C(=O)OC2,49.4%
O=C(O)c1ccccc1O,86.6%
CC(=O)Oc1ccc(C(c2ccc(OC(C)=O)cc2)c2ccccn2)cc1,5.68%
C[C@H]1O[C@H](O[C@H]2[C@H](O)[C@@H](O)[C@@H](O[C@H]3[C@H](O)[C@@H](O)C(O)O[C@@H]3CO)O[C@@H]2CO)[C@H](O)[C@@H](O)[C@@H]1N[C@H]1C=C(CO)[C@@H](O)[C@H](O)[C@H]1O (some centres unmarked),84.8%

# Set 3
# Target: Proto-oncogene tyrosine-protein kinase receptor Ret (RET, Homo sapiens, UniProt P07949)
# Sequence of UniProt P07949 (whole entry, looked up): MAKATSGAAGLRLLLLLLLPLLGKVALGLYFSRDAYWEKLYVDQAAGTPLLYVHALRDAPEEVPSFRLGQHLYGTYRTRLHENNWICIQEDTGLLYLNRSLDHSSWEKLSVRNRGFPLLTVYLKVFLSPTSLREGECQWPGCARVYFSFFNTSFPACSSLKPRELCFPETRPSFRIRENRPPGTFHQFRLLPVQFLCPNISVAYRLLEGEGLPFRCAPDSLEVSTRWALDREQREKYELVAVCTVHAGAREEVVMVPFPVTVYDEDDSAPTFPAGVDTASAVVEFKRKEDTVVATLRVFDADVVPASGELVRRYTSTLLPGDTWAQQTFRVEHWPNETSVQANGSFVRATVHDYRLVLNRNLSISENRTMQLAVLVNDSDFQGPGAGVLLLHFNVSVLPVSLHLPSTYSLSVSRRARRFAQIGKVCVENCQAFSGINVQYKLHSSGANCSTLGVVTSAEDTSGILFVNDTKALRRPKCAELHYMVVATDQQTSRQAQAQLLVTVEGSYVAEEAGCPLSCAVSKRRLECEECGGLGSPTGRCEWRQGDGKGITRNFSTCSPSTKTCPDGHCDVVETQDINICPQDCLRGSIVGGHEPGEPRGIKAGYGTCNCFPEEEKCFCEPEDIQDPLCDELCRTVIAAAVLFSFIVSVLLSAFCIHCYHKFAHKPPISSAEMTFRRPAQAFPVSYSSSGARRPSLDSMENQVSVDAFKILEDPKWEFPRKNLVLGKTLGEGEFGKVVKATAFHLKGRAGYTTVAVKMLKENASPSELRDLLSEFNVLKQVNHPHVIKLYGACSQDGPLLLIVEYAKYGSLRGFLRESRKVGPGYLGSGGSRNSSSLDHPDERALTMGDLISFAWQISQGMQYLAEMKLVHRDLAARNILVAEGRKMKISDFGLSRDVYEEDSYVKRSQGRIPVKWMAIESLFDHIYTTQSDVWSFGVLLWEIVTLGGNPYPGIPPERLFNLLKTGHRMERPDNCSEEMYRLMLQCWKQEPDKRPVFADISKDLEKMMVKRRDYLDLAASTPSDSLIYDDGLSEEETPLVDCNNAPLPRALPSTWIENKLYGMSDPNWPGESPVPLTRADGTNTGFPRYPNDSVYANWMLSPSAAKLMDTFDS
# Observed: enzyme activity
# Mode: inhibitor
# Concentration: 0.5 µM
# Relative to: control
Compound,remaining activity
Nc1ncnc2n[nH]c(Nc3ccc(F)cc3)c12,78.1%
Cc1nc(-c2ccccc2)c(-c2ccncc2)o1,97.5%
CCOC(=O)c1c(C)[nH]c(/C=C2\C(=O)Nc3ccccc32)c1C,40.8%
OCC(O)CCON=C1C(c2c(O)[nH]c3ccccc23)=Nc2ccccc21 (centres unmarked),1.22%
Cn1sc(=O)n(Cc2ccccc2)c1=O,106%
O=C(CCCc1ccc(-c2ccccc2F)cc1)Nc1ccc(O)cc1,111%
COc1ccc(OC)c2c(=S)c3ccccc3[nH]c12,82.8%
Cc1ccc(NC(=O)c2ccc(CN3CCN(C)CC3)cc2)cc1Nc1nc(-c2cccnc2)cs1,96.4%
N#CC(C#N)=C(N)/C(C#N)=C/c1ccc(O)cc1,110%
O=C1NC(=O)C(c2cn(CCCO)c3ncccc23)=C1c1cnccn1,54.5%
COc1cc2nccc(Oc3ccc(NC(=S)NC(=O)c4ccccc4C)cc3)c2cc1OC,86.7%
NCCNc1ncc(C(N)=O)c(Nc2cccc(C(F)(F)F)c2)n1,74.1%
Cn1c2ccccc2c2c3c(c4c5ccccc5n(CCC#N)c4c21)CNC3=O,0.516%
COc1cc2ncnc(Nc3ccc(Oc4ccccc4)cc3)c2cc1OC,40.6%
O=C(Nc1cccc(Nc2cc(Nc3cccc(C(F)(F)F)c3)ncn2)c1)C1CC1,109%

# Set 4
# Cell line: mouse MPNST tumor cells
# Method: high-content nuclear imaging
# Refers to: cell number
# Concentration: 10 µM
# Time: 12 h
# Notes: mean of 2 replicates
# Relative to: plate mean
# Reading: higher = more cells
SMILES,nuclei count [z-score]
COc1c(C)c2c(c(O)c1C/C=C(\C)CCC(=O)O)C(=O)OC2,-2.77
COc1ccc2cc(OCC3(C(=O)O)CN(C(=O)c4ccc(F)cc4)C3)ccc2c1,1.18
Cc1cn([C@H]2C[C@H](N=[N+]=[N-])[C@@H](CO)O2)c(=O)[nH]c1=O,-0.754
O=C(NC(Cc1cc(=O)[nH]c2ccccc12)C(=O)O)c1ccc(Cl)cc1 (centres unmarked),2.57
CNCc1ccc(-c2[nH]c3cc(F)cc4c3c2CCNC4=O)cc1,1.91

# Excerpt of the above (set 3):
Compound,remaining activity
N#CC(C#N)=C(N)/C(C#N)=C/c1ccc(O)cc1,110%
O=C1NC(=O)C(c2cn(CCCO)c3ncccc23)=C1c1cnccn1,54.5%
COc1cc2nccc(Oc3ccc(NC(=S)NC(=O)c4ccccc4C)cc3)c2cc1OC,86.7%
